Published values collected from several papers.
Numbered parts are unrelated; each lists some results of a single study.

Series 1
Target: Histone acetyltransferase KAT6A, both winged helices, GST fusion (KAT6A, Homo sapiens, UniProt Q92794, residues 1-181)
Technique: protein binding microarray
Form: double-stranded DNA, one strand shown
Sample: in vitro
Tested at: not given
Notes: 8-mer, flanks averaged, mean of 2 arrays, mostly near background
Relative to: not given
Direction: higher = stronger binding
Target sequence (chain): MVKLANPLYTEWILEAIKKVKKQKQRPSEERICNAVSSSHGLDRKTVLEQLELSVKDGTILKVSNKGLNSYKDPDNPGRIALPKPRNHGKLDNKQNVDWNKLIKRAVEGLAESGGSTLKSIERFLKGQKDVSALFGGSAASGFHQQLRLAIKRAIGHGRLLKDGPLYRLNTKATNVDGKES
`CACGCAGA` has an E-score of 0.0598.
`CAGGCCTG` has an E-score of -0.218.
With `GTTAAACA` the E-score was 0.0137.
`CAACAGAC` gave an E-score of 0.0251.
With `AGTTACAA` the E-score was -0.0129.

Series 2
Target: Sal-like protein 4, full length isoform B (SALL4, Homo sapiens, UniProt Q9UJQ4-2, residues 1-616)
Technique: universal PBM
Form: double-stranded DNA, one strand shown
Sample: in vitro
Tested at: not given
Notes: 8-mer, flanks averaged, mean of replicates
Direction: higher = stronger binding
The E-score of `GCATAGTA` is reported as 0.138.
`GCGAACTA` has an E-score of -0.0141.
The E-score of `AAAGATAA` is reported as 0.343.
With `ATAGACCC` the E-score was 0.105.
`CACTCAAA` gave an E-score of 0.0773.

Series 3
Target: Centromere-binding protein 1, full length, His-tagged (CBF1, Saccharomyces cerevisiae, UniProt P17106, residues 1-351)
UniProt P17106, sequence (whole entry, looked up): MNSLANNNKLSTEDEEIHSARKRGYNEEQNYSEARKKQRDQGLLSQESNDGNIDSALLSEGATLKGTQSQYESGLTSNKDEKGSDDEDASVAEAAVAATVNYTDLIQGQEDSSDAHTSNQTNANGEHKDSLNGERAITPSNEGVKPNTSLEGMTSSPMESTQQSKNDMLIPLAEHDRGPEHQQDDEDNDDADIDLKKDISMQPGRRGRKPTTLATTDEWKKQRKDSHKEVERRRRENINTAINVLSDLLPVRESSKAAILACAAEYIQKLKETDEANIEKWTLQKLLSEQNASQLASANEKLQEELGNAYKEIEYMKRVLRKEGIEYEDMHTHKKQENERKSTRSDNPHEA
Technique: competition protein-binding microarray
Form: double-stranded DNA, one strand shown
Sample: in vitro
Tested at: 2 µM
Notes: whole 60-bp probe, lowest competitor level
Together with: Pho4 competitor, 0.05 µM
Direction: higher = stronger binding
With `GCAGCAGTGGCCGCACTCGTGGCCGTCGAGTCATCGGTCTTGATTCGCTTGACGCTGCTG` the fluorescence intensity was 46.1 a.u.
`AAGTTCCACAAGGTGCTCGTGTTGACACTGAAAAGTGTCTTGATTCGCTTGACGCTGCTG` gave a fluorescence intensity of 104 a.u.
`TATGTAAAAAATCCGCACGTTGCCAGATACATACCGGTCTTGATTCGCTTGACGCTGCTG` gave a fluorescence intensity of 127 a.u.
For `CTAACGAAGGTTTGTTGGGTGGGTGACAAGCCAAGTGTCTTGATTCGCTTGACGCTGCTG`, the fluorescence intensity was 73.2 a.u.

Other studies, line by line
With `PhoQ, residues 284 288 289 292 302 303 AGGCYF` the fold induction was 31.6 (PhoP, residues 12 14 15 18 19 LHHVQ (Escherichia coli, UniProt P23836); Sort-seq, item: YFP reporter; E. coli; PhoQ-PhoP variant library, together with: 10 µM Mg2+; relative to: high Mg2+ state, higher = stronger signaling).
